Measurements of several laboratories.
Numbered parts are unrelated; each lists some results of a single study.

Study 1
Target: Interferon regulatory factor 7, full length, phosphomimetic (IRF7, Homo sapiens, UniProt Q92985, residues 1-503, S101K/S471D/S472D/S475D/S476D/S477D/S483D/S484D/S487D)
Method: protein-binding microarray
Molecule type: double-stranded DNA, one strand shown
Medium: in vitro
Tested at: 250 nM
Setting: 60-bp whole probe
With: salmon DNA 0.4 mg/ml
Baseline: random background probes
Reading: higher = stronger binding
All sequences stand within: GCCTAGCAC … GTCTTGATTCGCTTGACGCTGCTG
Construct (chain): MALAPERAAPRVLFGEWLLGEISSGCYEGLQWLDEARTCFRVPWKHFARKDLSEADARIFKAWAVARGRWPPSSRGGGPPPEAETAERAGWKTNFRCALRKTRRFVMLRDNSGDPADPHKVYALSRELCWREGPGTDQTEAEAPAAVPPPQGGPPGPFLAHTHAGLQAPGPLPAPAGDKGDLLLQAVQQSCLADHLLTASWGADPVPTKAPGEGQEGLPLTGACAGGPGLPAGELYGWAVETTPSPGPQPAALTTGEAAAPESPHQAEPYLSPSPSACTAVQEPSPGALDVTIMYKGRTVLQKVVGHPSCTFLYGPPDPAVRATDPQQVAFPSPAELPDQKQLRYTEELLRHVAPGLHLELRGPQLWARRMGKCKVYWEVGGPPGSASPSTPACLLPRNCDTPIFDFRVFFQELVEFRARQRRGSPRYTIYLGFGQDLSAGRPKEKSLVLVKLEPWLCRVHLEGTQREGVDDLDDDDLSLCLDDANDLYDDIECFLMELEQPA
Strand | log fluorescence [z-score]
CCACTTTTATTTTCAGTATTGTGCTAG | 1.18
CCGAAAATGCCCTTTTGGTGAGTGCTA | 0.179
GACGATATCGGTTTCGAGACGTGCTAG | 4.68
GAAAATCAACCAGGTGGTGTGTGCTAG | -0.42
GACGGTTTCCTAGTGCTGACGTGCTAG | 0.978
GAAGTAATTTCAAACCACAGGTGCTAG | -0.362
TTAGAATTCGGGACTGGATTAGTGCTA | -0.137
CTCCCTCTGTAAGTCAGCACGTGCTAG | 0.0342
GACGTTTTCCTTCTCCTGACGTGCTAG | 1.82
GACGGTCTTGGTATCGGGACGTGCTAG | 0.113
GACGATTTCAGACTGGAGAAGTGCTAG | 0.108
TTAGGTCTCGTTATCGGTTAGTGCTAG | 3.22
GACGATCTCAGTTTTGAGACGTGCTAG | 0.281
CCTCGTCTCTATCAAAAATAGTGCTAG | 0.659
TCACCTGTCCTTTTCTTACTGTGCTAG | 0.544
GACGGATTGCTACTGCTGACGTGCTAG | -0.616
GTCGGTTTCCTTCTCCTGACGTGCTAG | 3.99
TCAGAGTCCTGTTTGATACTGTGCTAG | 0.955
ACCCTGCCTAAAGCTAGTTTGTGCTAG | -0.273
TTAGGTATCCTTATCCTCTAGTGCTAG | 0.457
TTAGATTTGAGTCTCGATTAGTGCTAG | 1.9

Study 2
Target: Phosphate system positive regulatory protein PHO4, full length, GST-tagged (PHO4, Saccharomyces cerevisiae, UniProt P07270, residues 1-312)
UniProt P07270, sequence (whole entry, looked up): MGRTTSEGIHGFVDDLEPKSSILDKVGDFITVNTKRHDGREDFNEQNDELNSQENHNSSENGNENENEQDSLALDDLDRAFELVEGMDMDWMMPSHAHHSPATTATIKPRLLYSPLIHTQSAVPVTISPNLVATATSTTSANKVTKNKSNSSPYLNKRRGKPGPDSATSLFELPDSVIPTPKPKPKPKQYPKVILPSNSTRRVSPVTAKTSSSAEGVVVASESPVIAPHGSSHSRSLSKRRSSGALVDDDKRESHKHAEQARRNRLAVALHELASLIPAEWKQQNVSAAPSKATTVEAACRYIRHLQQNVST
Method: competition protein-binding microarray
Molecule type: double-stranded DNA, one strand shown
Medium: in vitro
Tested at: 2 µM
Setting: whole 60-bp probe, lowest competitor level
With: Cbf1 competitor, 0.05 µM
Reading: higher = stronger binding
All sequences stand within: … GTCTTGATTCGCTTGACGCTGCTG
Strand | fluorescence intensity [a.u.]
AAATTACTAAGTTGGTAGGTGGGTGACGCCGTATGA | 4140
CGGGGTTAAGTTTGCTCAGTGGGTGGCTTGCAGCAG | 3960
AGTAGCCAACTTCTTAACGTGTTGGGCAAGCAAGAT | 7170
CGGGGTTAAGTTTGCCTCGTGGGTGGCTTGCAGCAG | 12200
ATCAAGGTGCCTTGCCACCTGATCTATCTTTGATCG | 4450
AAAGCGGTAATTTGACGCGTGGGTGCAGATATCTAT | 9860
TAATGGCGGGTCAGTGACATGCGCGGACAAAATAAC | 6600
CATACCCAACCTTTTCACGTGACATAAGATATTTGT | 13400
AAAGCGGTAATTTGGTGGGTGGGTGCAGATATCTAT | 5310
AAAGCGGTAATTTGTCACAGTACTTCACATATCTAT | 3670
TGCGCAACAACTTGTCTCGTGGGTGTATGTCTAGAA | 10100
CTTTCCCGATCTTGGGCAGTGGGTGTAGCACATTTG | 4200
CGTCCTAGTGATTGCGGAGTGGGTGCCATGAGGAAG | 7620
CGGGGTTAAGTTTGAAAGGTGGGTGGCTTGCAGCAG | 4870
AAAGCGGTAATTTCACACGTGTTTTCACATATCTAT | 18000
CATACCCAACCTTGTGAGGTGGGTGAAGATATTTGT | 4310
GGGGAATTTCGCCGTCACGTTGTTTTGGTAAGTTCC | 11400
CAATGAATATACTGCAACGTGCCGATTGAATCCTAT | 14600
CGTCCTAGTGATTTTCACGTGACCTCCATGAGGAAG | 11200
CTTCTGTAAATTTGTAGAGTGGGTGGACGCGCCCCG | 3600
AAGTCCTTTTCCCGTCACGTGGTCGTAGAACACTCT | 18400
TCTCTTTCGAAAATGCTCGTGTAGCTCAGTGGTTAG | 7130
CGTCTGCTAATGGCGGACGTGGTCGATGATGAAGAG | 6370
GTCTTCTCCAAAACATTCGTGACGAATAGTCCTGCT | 5510
CTGAACTAACACTCACACATGTAGAGGTCCCCGGGA | 6250

Study 3
Target: Histone acetyltransferase KAT6A, winged helix 1, GST fusion (KAT6A, Homo sapiens, UniProt Q92794, residues 1-85)
Method: protein binding microarray
Molecule type: double-stranded DNA, one strand shown
Medium: in vitro
Tested at: not given
Setting: 8-mer, flanks averaged, mean of 2 arrays, mostly near background
Baseline: not given
Reading: higher = stronger binding
Construct (chain): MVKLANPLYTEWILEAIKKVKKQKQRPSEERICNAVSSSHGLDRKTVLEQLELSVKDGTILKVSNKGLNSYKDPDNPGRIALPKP
Strand | E-score
GATAATGC | 0.00402
GGCTTAGA | -0.0335
AGAATGTG | -0.135
GAGATCCA | -0.111
CTACTTAA | -0.164
CGCCCGCA | 0.375
CAGACTGA | -0.172
CACGAGGC | -0.0891
ATGGGCCC | -0.123
AGCCAGCT | -0.293
CCGTAATC | 0.26
GCAGGCGA | -0.0451
AAACTCGA | -0.187
CGGTAGAG | 0.122
CCCCTCAC | -0.0481
GCAGCTTA | -0.0188
GTGTACCA | -0.024
CCAATTGC | -0.0204
AAGTCTCG | -0.0191
ACGCTTCC | 0.256
CCAGTCGA | -0.205
CGTAAAAC | 0.162
ACACATAC | -0.258
CAGGTTAC | 0.0281

Study 4
Target: Transcription factor Sp1 (SP1, Homo sapiens, UniProt P08047, residues 1-785, full length assumed)
UniProt P08047, sequence (whole entry, looked up): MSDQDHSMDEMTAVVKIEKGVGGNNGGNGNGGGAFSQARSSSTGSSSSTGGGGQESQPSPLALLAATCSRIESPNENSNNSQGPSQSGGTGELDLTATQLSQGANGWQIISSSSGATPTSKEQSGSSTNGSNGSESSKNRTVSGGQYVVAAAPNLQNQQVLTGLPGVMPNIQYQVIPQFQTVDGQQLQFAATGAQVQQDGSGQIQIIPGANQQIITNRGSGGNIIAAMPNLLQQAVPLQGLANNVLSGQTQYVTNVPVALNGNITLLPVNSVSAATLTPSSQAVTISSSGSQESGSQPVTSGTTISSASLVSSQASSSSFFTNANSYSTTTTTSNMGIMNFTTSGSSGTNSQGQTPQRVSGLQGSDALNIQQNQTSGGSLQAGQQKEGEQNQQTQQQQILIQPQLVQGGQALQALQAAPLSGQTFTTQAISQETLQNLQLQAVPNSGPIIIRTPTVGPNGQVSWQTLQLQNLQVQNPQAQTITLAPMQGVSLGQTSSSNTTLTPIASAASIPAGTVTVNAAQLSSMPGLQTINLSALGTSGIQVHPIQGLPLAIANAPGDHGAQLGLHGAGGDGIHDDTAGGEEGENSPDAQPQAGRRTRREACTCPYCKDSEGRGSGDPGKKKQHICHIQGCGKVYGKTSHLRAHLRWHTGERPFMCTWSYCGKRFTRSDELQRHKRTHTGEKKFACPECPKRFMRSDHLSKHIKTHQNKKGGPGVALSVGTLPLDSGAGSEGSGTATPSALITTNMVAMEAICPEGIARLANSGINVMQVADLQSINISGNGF
Method: protein-binding microarray
Molecule type: double-stranded DNA, one strand shown
Medium: in vitro
Tested at: not given
Setting: k-mer, scored over probes, only values ≥0.25
Reading: higher = stronger binding
Strand | E-score
TACCCCGA | 0.28
GAGGGGTA | 0.323
CCATCACC | 0.262
CCTCCTCC | 0.36
TCCGCCCA | 0.422
ATAAGGGG | 0.303
CCCCGTAC | 0.274
TAGTACTA | 0.257
CACCCTCC | 0.367
CATGTACG | 0.308
CCCCTCCG | 0.328
CATATATG | 0.348
CAATACCC | 0.262
GTCGCGAC | 0.297
ACACCCAT | 0.326
ACATATAT | 0.262
GAGGGGCA | 0.315
ACTAGTAT | 0.282
AACCCGCC | 0.264
AGGGCGTG | 0.38
ACCCCACC | 0.43
ACAATTGA | 0.279
ATGCATTA | 0.281

Study 5
Target: Sal-like protein 4, full length isoform A (SALL4, Homo sapiens, UniProt Q9UJQ4, residues 1-1053)
UniProt Q9UJQ4, sequence (whole entry, looked up): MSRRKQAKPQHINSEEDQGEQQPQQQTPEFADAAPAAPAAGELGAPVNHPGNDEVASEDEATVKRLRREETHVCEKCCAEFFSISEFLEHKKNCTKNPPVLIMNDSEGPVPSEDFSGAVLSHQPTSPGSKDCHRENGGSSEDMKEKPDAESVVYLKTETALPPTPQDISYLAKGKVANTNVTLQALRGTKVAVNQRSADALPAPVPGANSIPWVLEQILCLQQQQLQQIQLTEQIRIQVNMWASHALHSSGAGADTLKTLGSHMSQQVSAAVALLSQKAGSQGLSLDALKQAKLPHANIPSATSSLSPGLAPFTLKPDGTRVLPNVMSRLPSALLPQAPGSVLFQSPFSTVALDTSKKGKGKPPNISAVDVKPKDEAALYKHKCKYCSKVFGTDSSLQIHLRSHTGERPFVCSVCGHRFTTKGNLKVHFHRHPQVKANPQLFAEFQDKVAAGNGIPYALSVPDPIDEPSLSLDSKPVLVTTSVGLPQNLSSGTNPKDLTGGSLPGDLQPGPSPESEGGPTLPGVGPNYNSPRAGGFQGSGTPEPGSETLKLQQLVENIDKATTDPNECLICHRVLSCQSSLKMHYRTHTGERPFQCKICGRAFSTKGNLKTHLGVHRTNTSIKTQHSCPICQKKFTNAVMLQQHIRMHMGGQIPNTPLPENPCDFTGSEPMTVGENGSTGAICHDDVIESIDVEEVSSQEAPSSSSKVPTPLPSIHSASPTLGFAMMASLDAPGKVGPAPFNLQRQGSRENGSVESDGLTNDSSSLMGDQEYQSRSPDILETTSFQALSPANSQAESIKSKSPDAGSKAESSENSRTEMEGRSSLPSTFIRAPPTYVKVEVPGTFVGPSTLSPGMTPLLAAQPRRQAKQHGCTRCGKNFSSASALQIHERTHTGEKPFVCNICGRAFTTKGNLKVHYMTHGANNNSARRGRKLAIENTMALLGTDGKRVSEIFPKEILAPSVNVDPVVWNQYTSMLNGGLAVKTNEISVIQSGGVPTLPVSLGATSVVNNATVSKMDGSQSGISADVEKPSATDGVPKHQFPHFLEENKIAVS
Method: universal PBM
Molecule type: double-stranded DNA, one strand shown
Medium: in vitro
Tested at: 600 nM
Setting: 8-mer, flanks averaged, mean of replicates
Reading: higher = stronger binding
Strand | E-score
AGAGTGGG | -0.101
ATACAAGA | 0.224
AAAACCCT | 0.138
GGGCCTGA | -0.31
CGTCGTAG | -0.115
AATCTCGG | -0.102
AACTGCGC | -0.125
CCCCGGCA | -0.264
ACGGCTAA | -0.0381
CTCCATCC | -0.154
ATACCATG | 0.0636
ACACATAG | 0.129
ATCGCCAC | -0.0984
AGAGCTCT | -0.357
CCAAGGAG | -0.179
ACTAACGG | -0.0657
CCACTGGC | -0.259
CAATTCCC | 0.0666
ACTTTGAA | 0.199
ATGTGACA | 0.116
AGTCGCAC | -0.117
GATTAAGC | 0.142
ACGTATCG | -0.00634

Study 6
Target: CDC34 UBC core domain (UniProt P49427)
Method: yeast two-hybrid
Medium: yeast
Setting: mostly zero background
Baseline: not given
Reading: higher = stronger interaction
B1: TRIM4 RING domain (UniProt Q9C037); chain EAEDIQEELTCPICLDYFQDPVSIECGHNFCRGCLHRNWAPGGGPFPCPECRHPSAPAALRP
B2: RNF38 RING domain (UniProt Q9H0F5); chain PNNHQSEQTLCVVCMCDFESRQLLRVLPCNHEFHAKCVDKWLKANRTCPICRADASEVHRDS
B3: RNF111 RING domain (UniProt Q6ZNA4); chain EGTEEDTEEKCTICLSILEEGEDVRRLPCMHLFHQVCVDQWLITNKKCPICRVDIEAQLPSE
B4: DTX4 RING domain (UniProt Q9Y2E6); chain QKVRHPPDEDCTICMERLTAPSGYKGPQPTVKPDLVGKLSRCGHVYHIYCLVAMYNNGNKDGSLQCPTCKTIYGVKTGTQ
B5: TRIM5 RING domain (UniProt Q9C035); chain ILVNVKEEVTCPICLELLTQPLSLDCGHSFCQACLTANHKKSMLDKGESSCPVCRISYQPENIRP
B6: TRIM13 RING domain (UniProt O60858); chain MELLEEDLTCPICCSLFDDPRVLPCSHNFCKKCLEGILEGSVRNSLWRPAPFKCPTCRKETSATGINS
B7: NEURL1 RING domain (UniProt O76050); chain VTPGLGQWSDECTICYEHAVDTVIYTCGHMCLCYACGLRLKKALHACCPICRRPIKDIIKT
B8: VPS41 RING domain (UniProt P49754); chain KGVLVDEENICESCLSPILPSDAAKPFSVVVFHCRHMFHKECLPMPSMNSAAQFCNICSAKNRGPGSAI
B9: SH3RF2 RING domain (UniProt Q8TEC5); chain DDLTLLDLLECPVCFEKLDVTAKVLPCQHTFCKPCLQRVFKAHKELRCPECRTPVFSNIEAL
B10: RNF208 RING domain (UniProt Q9H0X6); chain SSAAAGEPLECPTCGHSYNVTQRRPRVLSCLHSVCEQCLQILYESCPKYKFISCPTCRRETVLFTDYG
B11: TRIM43 RING domain (UniProt Q96BQ3); chain FSHAFQKELTCVICLNYLVDPVTICCGHSFCRPCLCLSWEEAQSPANCPACREPSPKMDFKT
B12: TRAF5 RING domain (UniProt O00463); chain FVERLEERYKCAFCHSVLHNPHQTGCGHRFCQHCILSLRELNTVPICPVDKEVIKSQEVFK
Construct (chain): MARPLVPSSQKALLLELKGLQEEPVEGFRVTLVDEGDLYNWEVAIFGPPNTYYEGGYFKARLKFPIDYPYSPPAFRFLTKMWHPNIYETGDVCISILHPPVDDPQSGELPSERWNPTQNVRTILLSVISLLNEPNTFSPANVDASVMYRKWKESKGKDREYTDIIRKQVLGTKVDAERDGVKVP
Molecule | lacZ reporter activity
B1 (TRIM4 RING domain) | 0
B2 (RNF38 RING domain) | 0
B3 (RNF111 RING domain) | 0
ASLPTSEEDLCPICYAHPISAVFQPCGHKSCKACINQHLMNNKDCFFCKTTIVSVEDWE (RNF123 RING domain (UniProt Q5XPI4)) | 0
B4 (DTX4 RING domain) | 0
VEPSEENSKDCVVCQNGTVNWVLLPCRHTCLCDGCVKYFQQCPMCRQFVQESFALC (CGRRF1 RING domain (UniProt Q99675)) | 0
B5 (TRIM5 RING domain) | 0
B6 (TRIM13 RING domain) | 0
B7 (NEURL1 RING domain) | 0
B8 (VPS41 RING domain) | 0
GAAPGPEAAECLVCSELALLVLFSPCQHRTVCEECARRMKKCIRCQVVVSKKLRPD (MIB2 RING domain (UniProt Q96AX9)) | 0
B9 (SH3RF2 RING domain) | 0
B10 (RNF208 RING domain) | 0
B11 (TRIM43 RING domain) | 0
B12 (TRAF5 RING domain) | 0

Some of these lines once more (study 5):
Strand | E-score
CTCCATCC | -0.154
ACGTATCG | -0.00634
ATACAAGA | 0.224
CAATTCCC | 0.0666
ATACCATG | 0.0636
ACGGCTAA | -0.0381
GGGCCTGA | -0.31
ACACATAG | 0.129
CCAAGGAG | -0.179
AGTCGCAC | -0.117
AGAGCTCT | -0.357
ACTTTGAA | 0.199
CGTCGTAG | -0.115
ATCGCCAC | -0.0984
AGAGTGGG | -0.101
ATGTGACA | 0.116
ACTAACGG | -0.0657
AATCTCGG | -0.102
GATTAAGC | 0.142
AACTGCGC | -0.125
